Measurements collected from several papers.
Compare with care: the assays were run in different laboratories. ± marks the error that the study gave.

CC(C)=CCC1CC(=O)C(C)=CC2C=C(C)CC(c3ccccc3)C2C(=O)C2=C(O)C(C)(CC=C1C)C(=O)C(C)(C)C2=O (centres unmarked)
CC50 (HEp-2; cell growth or viability): > 50 µM

COc1cc(CNC(=O)C[C@H](C)CCC=C(C)C)ccc1OCc1cn(-c2cccc(C(F)(F)F)c2)nn1
growth percent (HCC 2998; SRB; 10 µM, 48 h): 111%

C=C1C(=O)O[C@@H]2C[C@H](C)[C@@H]3C[C@H](OCc4cn(Cc5ccccc5)nn4)[C@H](O)[C@@]3(C)C[C@H]12
CC50 (BALB/c mouse splenocytes; propidium iodide flow cytometry; 48 h, 10% fetal calf serum): 158 µM

CC1=CCC(C)(C)C=CCC2(C)OC3=C(CC2CC1)C(=O)C(=C(O)C=Cc1ccccc1)C(=O)C3(C)C (centres unmarked)
CC50 (HEp-2; cell growth or viability): 47.3 µM

C/C=C/CNC(=N)NCCCCCCCCN1CCCc2cc(Cl)ccc2COc2ccccc2CNC(=N)NC1=O
CC50 (normal human dermal fibroblasts; MTT; 48 h): 25.4 ± 1.67 µg/mL

Cc1cc(C#N)cc(C)c1Oc1nc(NC2CCN(Cc3ccc(S(N)(=O)=O)cc3)CC2)nc2cccnc12
CC50 (TZM-bl; cell growth or viability, XTT): 53.5 µM

C/C=C/CNC(=N)NCCCCCCCCN1CCCc2ccc(F)cc2COc2ccccc2CNC(=N)NC1=O
CC50 (normal human dermal fibroblasts; MTT; 48 h): 24.9 ± 1.07 µg/mL

COc1c(C)c(O)c(C)c(O)c1C(=O)C1C(C=C(C)C=O)C=C(C)CC1c1ccccc1 (centres unmarked)
CC50 (HEp-2; cell growth or viability): > 50 µM

Cc1nc([C@@H](NC(=O)c2ccc(-c3ccc(Cl)cc3)[nH]2)[C@H]2CCCCN2)sc1CO
CC50 (TZM-bl; cell growth or viability, XTT): ~30 µM

N=C(N)NCCC[C@@H]1NC(=O)[C@H](CCCCNC(=O)CNC(=O)CNC(=O)CNC(=O)CC[C@H](NC(=O)CNC(=O)CNC(=O)CNC(=O)CC[C@H](NC(=O)CN2CCN(CC(=O)O)CCN(CC(=O)O)CCN(CC(=O)O)CC2)C(=O)NCC(=O)NCC(=O)NCC(=O)N[C@@H](CCC(=O)NCC(=O)NCC(=O)NCC(=O)NCCCC[C@@H]2NC(=O)[C@@H](Cc3ccccc3)NC(=O)[C@H](CC(=O)O)NC(=O)CNC(=O)[C@H](CCCNC(=N)N)NC2=O)C(=O)NCC(=O)NCC(=O)NCC(=O)NCCCC[C@@H]2NC(=O)[C@@H](Cc3ccccc3)NC(=O)[C@H](CC(=O)O)NC(=O)CNC(=O)[C@H](CCCNC(=N)N)NC2=O)C(=O)NCC(=O)NCC(=O)NCC(=O)NCCCC[C@@H]2NC(=O)[C@@H](Cc3ccccc3)NC(=O)[C@H](CC(=O)O)NC(=O)CNC(=O)[C@H](CCCNC(=N)N)NC2=O)NC(=O)[C@@H](Cc2ccccc2)NC(=O)[C@H](CC(=O)O)NC(=O)CNC1=O [indium-111 labelled]
tissue uptake (female athymic nu/nu mice, heart; intravenous, 4 h): 1.03 ± 0.23 %ID/g

CCc1c(CC2CCCCC2)nc(SCC(=O)c2ccccc2)[nH]c1=O
CC50 (TZM-bl; cell growth or viability; 72 h): > 200 µM

N=C(N)NCCC[C@@H]1NC(=O)[C@H](CCCCNC(=O)CNC(=O)CNC(=O)CNC(=O)CC[C@H](NC(=O)CNC(=O)CNC(=O)CNC(=O)CN2CCN(CC(=O)O)CCN(CC(=O)O)CCN(CC(=O)O)CC2)C(=O)NCC(=O)NCC(=O)NCC(=O)NCCCC[C@@H]2NC(=O)[C@@H](Cc3ccccc3)NC(=O)[C@H](CC(=O)O)NC(=O)CNC(=O)[C@H](CCCNC(=N)N)NC2=O)NC(=O)[C@@H](Cc2ccccc2)NC(=O)[C@H](CC(=O)O)NC(=O)CNC1=O [indium-111 labelled]
tissue uptake (female athymic nu/nu mice, brain; intravenous, 24 h): 0.05 ± 0.01 %ID/g

COc1c(C)c(O)c(C)c(O)c1C(=O)C1C(CC=C(C)C=O)C(C)=CCC1c1ccccc1 (centres unmarked)
CC50 (HEp-2; cell growth or viability): > 50 µM

Cc1cc(C#N)cc(C)c1Oc1nc(NC2CCN(Cc3cccc(Br)c3)CC2)nc2ccccc12
CC50 (TZM-bl; cell growth or viability, XTT): > 0.231 µM

C=C1CC[C@@H]2CC3=C(O[C@@]2(C)CC[C@@H]2[C@@H]1CC2(C)C)C(C)(C)C(=O)/C(=C(O)\C=C\c1ccccc1)C3=O
CC50 (HEp-2; cell growth or viability): > 50 µM

Cc1cc(C#N)cc(C)c1Oc1nc(NC2CCN(Cc3ccccc3C#N)CC2)nc2ccccc12
CC50 (TZM-bl; cell growth or viability, XTT): > 0.256 µM

O=c1ccn([C@@H]2O[C@H](CO)[C@@H](O)[C@H]2F)c(=O)[nH]1
CC50 (SkMC; sulforhodamine B; 11 days, galactose medium): > 250 µM

Cc1cc(C#N)cc(C)c1Oc1nc(NC2CCN(Cc3ccc(F)cc3)CC2)nc2ccccc12
CC50 (TZM-bl; cell growth or viability, XTT): > 0.26 µM

CC(C)=CCC/C(C)=C/Cc1c(CCC(=O)c2ccc(O)cc2O)ccc(O)c1O
CC50 (DLD-compound; CCK-8; 48 h): 19.7 ± 2.18 µM

Cc1cc(C#N)cc(C)c1Oc1nc(NC2CCN(Cc3ccccn3)CC2)nc2ccccc12
CC50 (TZM-bl; cell growth or viability, XTT): > 0.269 µM

Nc1ccn([C@@H]2O[C@H](CO)[C@@H](O)[C@H]2F)c(=O)n1
CC50 (SkMC; sulforhodamine B; 11 days, galactose medium): > 250 µM

Cc1cc(/C=C/C#N)cc(C)c1Oc1nc(NC2CCN(Cc3ccc(C(N)=O)cc3)CC2)nc2ccccc12
CC50 (TZM-bl; cell growth or viability, XTT): 53.7 µM

C=C1C(=O)O[C@@H]2C[C@H](C)[C@@H]3C[C@H](OCc4cn(Cc5ccccc5)nn4)[C@H](OCc4cn(Cc5ccccc5)nn4)[C@@]3(C)C[C@H]12
CC50 (BALB/c mouse splenocytes; propidium iodide flow cytometry; 48 h, 10% fetal calf serum): 376 ± 6.57 µM

Cc1cc(C#N)cc(C)c1Oc1nc(NC2CCN(Cc3ccc([N+](=O)[O-])cc3)CC2)nc2ccccc12
CC50 (TZM-bl; cell growth or viability, XTT): > 0.246 µM

C=C1CC[C@H]2Cc3c(c(C)c(O)c(C(=O)/C=C/c4ccccc4)c3OC)O[C@]2(C)CC[C@@H]2[C@@H]1CC2(C)C
CC50 (HEp-2; cell growth or viability): > 50 µM

Nc1ncnc2c1ncn2[C@@H]1O[C@H](CO)[C@@H](O)[C@H]1F
CC50 (SNB-78; sulforhodamine B; 11 days, galactose medium): 51 µM

Cc1cc2c(C(N)=O)cccc2n1-c1nc2c(c(NCc3ccccc3)n1)COCC2
CC50 (human foreskin fibroblasts; MTS; 6 days): 0.5 µM

COc1cc(CNC(=O)C[C@H](C)CCC=C(C)C)ccc1OCc1cn(-c2ccc(Cl)cc2Cl)nn1
growth percent (HOP-62; SRB; 10 µM, 48 h): 11.3%

CC1=C(OC2CC3CCC2(C)C3(C)C)C(C)(C)C(=O)C(=C(O)C=Cc2ccccc2)C1=O (centres unmarked)
CC50 (HEp-2; cell growth or viability): 44.5 µM

OC[C@H]1O[C@@H](n2cnc3c(O)ncnc32)[C@H](F)[C@@H]1O
CC50 (SkMC; sulforhodamine B; 11 days, galactose medium): > 250 µM

COc1c(C)c2c(c(O)c1C(=O)C=Cc1ccccc1)CC1CCC(C)=CCC(C)(C)C=CCC1(C)O2 (centres unmarked)
CC50 (HEp-2; cell growth or viability): > 50 µM

Cc1cc(C#N)cc(C)c1Oc1nc(NC2CCN(Cc3ccc(C(N)=O)cc3)CC2)nc2cccnc12
CC50 (TZM-bl; cell growth or viability, XTT): 48.1 µM

Some of these lines once more:
Cc1cc2c(C(N)=O)cccc2n1-c1nc2c(c(NCc3ccccc3)n1)COCC2
CC50 (human foreskin fibroblasts; MTS; 6 days): 0.5 µM

COc1cc(CNC(=O)C[C@H](C)CCC=C(C)C)ccc1OCc1cn(-c2ccc(Cl)cc2Cl)nn1
growth percent (HOP-62; SRB; 10 µM, 48 h): 11.3%

CC1=C(OC2CC3CCC2(C)C3(C)C)C(C)(C)C(=O)C(=C(O)C=Cc2ccccc2)C1=O (centres unmarked)
CC50 (HEp-2; cell growth or viability): 44.5 µM
